Measured values of several laboratories.
Parts stem from different laboratories: compare values within a part only. Substitutions count along the parent as printed.
Sequence of UniProt Q9UM73 (whole entry, looked up): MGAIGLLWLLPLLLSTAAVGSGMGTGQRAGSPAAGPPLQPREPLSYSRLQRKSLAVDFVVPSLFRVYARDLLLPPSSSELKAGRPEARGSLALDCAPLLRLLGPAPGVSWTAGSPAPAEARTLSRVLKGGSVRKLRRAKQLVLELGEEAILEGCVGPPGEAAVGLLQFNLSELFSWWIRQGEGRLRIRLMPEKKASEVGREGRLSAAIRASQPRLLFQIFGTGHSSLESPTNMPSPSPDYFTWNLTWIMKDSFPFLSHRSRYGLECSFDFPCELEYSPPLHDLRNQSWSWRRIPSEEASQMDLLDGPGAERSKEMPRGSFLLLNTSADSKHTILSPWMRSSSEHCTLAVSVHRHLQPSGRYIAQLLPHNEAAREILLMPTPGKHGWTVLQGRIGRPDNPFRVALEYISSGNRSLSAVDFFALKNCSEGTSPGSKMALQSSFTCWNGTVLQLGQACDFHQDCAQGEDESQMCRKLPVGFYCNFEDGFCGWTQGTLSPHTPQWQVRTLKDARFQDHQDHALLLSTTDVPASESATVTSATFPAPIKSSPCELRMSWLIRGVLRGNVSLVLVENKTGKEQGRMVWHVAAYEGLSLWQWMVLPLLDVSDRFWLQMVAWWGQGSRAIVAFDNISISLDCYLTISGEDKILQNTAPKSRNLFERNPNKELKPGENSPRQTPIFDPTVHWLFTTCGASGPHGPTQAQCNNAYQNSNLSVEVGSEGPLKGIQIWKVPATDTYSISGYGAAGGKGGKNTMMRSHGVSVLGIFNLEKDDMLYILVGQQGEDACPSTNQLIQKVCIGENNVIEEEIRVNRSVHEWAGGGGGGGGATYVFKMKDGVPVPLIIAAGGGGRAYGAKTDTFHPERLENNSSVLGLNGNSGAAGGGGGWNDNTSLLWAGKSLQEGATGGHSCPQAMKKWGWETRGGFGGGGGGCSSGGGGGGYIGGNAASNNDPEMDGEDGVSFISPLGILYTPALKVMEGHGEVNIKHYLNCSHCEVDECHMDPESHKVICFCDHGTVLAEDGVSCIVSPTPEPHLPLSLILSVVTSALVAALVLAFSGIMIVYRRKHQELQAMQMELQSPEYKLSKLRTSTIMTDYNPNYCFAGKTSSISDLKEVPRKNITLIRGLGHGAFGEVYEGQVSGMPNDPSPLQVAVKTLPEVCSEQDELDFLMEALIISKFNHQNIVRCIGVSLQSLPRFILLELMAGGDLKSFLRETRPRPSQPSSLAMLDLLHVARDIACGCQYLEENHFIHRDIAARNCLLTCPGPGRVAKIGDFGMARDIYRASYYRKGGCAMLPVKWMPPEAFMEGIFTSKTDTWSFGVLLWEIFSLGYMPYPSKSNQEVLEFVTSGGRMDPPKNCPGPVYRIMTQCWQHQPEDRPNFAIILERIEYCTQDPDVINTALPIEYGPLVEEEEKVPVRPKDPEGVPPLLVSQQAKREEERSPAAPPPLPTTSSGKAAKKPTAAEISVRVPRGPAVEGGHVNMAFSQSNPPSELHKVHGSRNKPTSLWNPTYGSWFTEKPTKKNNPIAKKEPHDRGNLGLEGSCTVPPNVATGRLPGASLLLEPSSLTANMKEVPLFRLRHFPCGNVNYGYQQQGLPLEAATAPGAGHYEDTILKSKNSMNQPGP

Study 1
Target: UDP-N-acetylglucosamine--peptide N-acetylglucosaminyltransferase 110 kDa subunit (OGT, Homo sapiens, UniProt O15294)
Sequence of UniProt O15294 (whole entry, looked up): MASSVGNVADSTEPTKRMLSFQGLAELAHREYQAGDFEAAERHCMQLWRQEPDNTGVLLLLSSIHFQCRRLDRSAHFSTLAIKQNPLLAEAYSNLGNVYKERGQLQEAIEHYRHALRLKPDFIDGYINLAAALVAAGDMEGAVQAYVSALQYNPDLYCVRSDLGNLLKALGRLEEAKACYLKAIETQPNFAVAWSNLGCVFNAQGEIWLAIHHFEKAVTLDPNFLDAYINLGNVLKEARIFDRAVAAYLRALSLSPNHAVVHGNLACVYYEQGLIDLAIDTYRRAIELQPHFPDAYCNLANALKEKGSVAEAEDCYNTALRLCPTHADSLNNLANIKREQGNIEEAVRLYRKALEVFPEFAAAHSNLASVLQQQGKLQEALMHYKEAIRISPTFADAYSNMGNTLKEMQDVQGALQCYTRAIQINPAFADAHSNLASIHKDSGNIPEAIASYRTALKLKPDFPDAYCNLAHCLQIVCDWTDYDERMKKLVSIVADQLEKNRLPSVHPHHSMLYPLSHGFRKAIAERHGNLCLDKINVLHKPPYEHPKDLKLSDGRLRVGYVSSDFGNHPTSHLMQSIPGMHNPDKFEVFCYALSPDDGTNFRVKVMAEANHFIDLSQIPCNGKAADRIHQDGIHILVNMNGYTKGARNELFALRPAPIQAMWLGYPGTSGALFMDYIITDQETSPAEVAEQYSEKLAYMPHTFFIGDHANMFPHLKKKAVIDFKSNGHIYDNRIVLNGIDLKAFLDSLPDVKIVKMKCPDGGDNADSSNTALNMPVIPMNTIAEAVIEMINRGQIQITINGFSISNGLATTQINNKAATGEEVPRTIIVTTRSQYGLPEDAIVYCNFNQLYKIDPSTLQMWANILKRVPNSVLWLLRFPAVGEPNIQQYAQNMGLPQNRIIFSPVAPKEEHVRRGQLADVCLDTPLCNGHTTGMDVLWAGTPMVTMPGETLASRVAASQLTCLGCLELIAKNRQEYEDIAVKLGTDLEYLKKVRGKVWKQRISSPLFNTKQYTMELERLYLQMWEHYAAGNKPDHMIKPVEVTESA
Observed: binding
Technique: phage display NGS
Molecule type: peptide
Reference: input library
Sequence | minimum log2 enrichment ratio
FKDGRHAERHFFHQH | 3.24
HLQTVHSHSYYLRS | 1.21
HQLQIHHRSHLNDYP | 2.33
NRYTETRHMHQVHHS | 2.51
YTSHYPVHVHHYPQ | 3.64
YQPYYPMYQIVRNNS | 3.06
HQIEWHHTSSNYFH | 2.01
HQQLVHGAWHHPIT | 2.5

Study 2
Target: inorganic phosphate, free oxyanion
Technique: microfluidic competitive inhibition
Medium: in vitro, cell-free expressed
Tested at: not given
Setting: derived from inhibition constants, unchanged parent 615000 nM
Direction: lower = stronger binding
Parent: PafA, mature enzyme, eGFP fusion (Elizabethkingia meningoseptica, UniProt Q9KJX5); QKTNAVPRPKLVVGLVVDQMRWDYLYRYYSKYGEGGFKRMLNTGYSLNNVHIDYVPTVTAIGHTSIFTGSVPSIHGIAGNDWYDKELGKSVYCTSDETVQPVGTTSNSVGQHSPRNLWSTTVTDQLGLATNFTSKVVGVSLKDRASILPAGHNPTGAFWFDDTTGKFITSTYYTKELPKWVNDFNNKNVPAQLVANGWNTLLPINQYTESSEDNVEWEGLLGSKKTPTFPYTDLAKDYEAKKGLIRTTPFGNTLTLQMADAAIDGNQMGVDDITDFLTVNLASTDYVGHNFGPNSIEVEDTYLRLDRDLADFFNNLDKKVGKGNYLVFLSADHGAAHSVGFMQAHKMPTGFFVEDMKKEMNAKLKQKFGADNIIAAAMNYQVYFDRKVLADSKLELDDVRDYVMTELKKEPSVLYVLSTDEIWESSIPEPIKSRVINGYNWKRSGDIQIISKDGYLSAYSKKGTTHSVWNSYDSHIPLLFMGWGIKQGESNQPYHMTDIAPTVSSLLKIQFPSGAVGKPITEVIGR
Variant | phosphate dissociation constant [µM]
D143G | 2320
K135G | 535
D264G | 581
I373G | 546
T169G | 536
K31G | 650
Y302V | 1010
D124G | 533

Study 3
Target: CCNE2, cyclin fold, Cln2 fusion (human)
Technique: yeast growth competition, sequencing
Medium: yeast
Setting: strong parent motif
Reference: not given
Direction: higher = stronger binding
Parent: viral docking peptide; KKVKRRLFETREL; partner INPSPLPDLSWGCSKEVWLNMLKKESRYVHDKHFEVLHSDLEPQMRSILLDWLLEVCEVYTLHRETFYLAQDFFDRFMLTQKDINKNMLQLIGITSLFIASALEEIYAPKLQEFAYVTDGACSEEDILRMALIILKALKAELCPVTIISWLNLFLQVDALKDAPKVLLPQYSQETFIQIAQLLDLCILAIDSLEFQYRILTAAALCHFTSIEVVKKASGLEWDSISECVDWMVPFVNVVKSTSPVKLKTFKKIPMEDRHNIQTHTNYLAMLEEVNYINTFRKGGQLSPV
Variant | normalised enrichment score
R5K F8L | 0.645
R6A | 1.74
R11A | 5.13
K4A | 2.47
E9A | 2.85

Mixed results
SMILES | tested on | test | setting | how to read | endpoint | result
CN[C@@H]1Cc2cccc3[nH]c(=O)n(c23)C1 | mouse MPNST tumor cells | high-content nuclear imaging, measured: cell number | 10 µM, 12 h, mean of 2 replicates | reference: plate mean, higher = more cells | nuclei count | 1.81 z-score
COC[C@H]1OC(=O)c2coc3c2[C@@]1(C)C1=C(C3=O)[C@@H]2CCC(=O)[C@@]2(C)C[C@H]1OC(C)=O | ALK tyrosine kinase receptor (ALK, Homo sapiens, UniProt Q9UM73) | enzyme activity, inhibitor | 0.5 µM | reference: control | remaining activity | 103%

Excerpt of the above (study 3):
Variant | normalised enrichment score
R5K F8L | 0.645
R6A | 1.74
R11A | 5.13
